Measured values of several laboratories.
Every numbered part comes from another study and shows a few of its results, in no order. Several values in a cell are separate wells, animals, samples, runs or records.
Sequence of UniProt P49137 (whole entry, looked up): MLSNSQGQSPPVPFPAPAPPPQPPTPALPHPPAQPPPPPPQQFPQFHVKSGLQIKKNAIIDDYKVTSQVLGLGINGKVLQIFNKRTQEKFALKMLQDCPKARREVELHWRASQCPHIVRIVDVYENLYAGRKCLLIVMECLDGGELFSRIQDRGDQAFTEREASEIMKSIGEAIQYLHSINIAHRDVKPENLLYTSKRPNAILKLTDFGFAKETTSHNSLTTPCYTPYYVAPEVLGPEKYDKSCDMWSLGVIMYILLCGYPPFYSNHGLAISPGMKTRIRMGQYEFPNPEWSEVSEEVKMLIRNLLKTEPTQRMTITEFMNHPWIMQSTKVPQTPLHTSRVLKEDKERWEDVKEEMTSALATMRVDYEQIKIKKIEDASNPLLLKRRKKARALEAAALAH
Sequence of UniProt O43353 (whole entry, looked up): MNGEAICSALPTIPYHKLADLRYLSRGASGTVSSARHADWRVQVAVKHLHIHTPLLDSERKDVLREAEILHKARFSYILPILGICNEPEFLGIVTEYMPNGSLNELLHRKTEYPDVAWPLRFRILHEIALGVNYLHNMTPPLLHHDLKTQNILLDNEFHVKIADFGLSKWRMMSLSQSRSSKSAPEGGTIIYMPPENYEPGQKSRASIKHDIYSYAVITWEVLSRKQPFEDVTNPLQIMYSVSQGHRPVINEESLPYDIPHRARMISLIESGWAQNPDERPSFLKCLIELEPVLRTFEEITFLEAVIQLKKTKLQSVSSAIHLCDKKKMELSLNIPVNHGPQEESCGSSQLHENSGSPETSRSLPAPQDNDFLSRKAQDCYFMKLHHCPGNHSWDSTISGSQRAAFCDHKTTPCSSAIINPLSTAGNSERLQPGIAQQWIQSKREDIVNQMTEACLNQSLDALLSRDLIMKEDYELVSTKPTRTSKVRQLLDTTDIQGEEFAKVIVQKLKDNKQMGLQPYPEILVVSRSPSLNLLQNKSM
Sequence of UniProt P49841 (whole entry, looked up): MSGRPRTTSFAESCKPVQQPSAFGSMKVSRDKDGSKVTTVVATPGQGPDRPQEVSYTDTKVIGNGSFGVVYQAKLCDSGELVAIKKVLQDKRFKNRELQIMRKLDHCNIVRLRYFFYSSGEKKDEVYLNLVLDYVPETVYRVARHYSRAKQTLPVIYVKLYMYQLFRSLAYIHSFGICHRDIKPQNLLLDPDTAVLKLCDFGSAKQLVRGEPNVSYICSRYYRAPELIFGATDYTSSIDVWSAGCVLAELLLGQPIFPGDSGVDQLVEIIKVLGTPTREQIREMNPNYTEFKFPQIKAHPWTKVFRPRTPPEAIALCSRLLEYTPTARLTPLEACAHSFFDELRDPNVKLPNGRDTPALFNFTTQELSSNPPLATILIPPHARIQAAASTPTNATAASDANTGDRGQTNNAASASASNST
Sequence of UniProt Q9HC98 (whole entry, looked up): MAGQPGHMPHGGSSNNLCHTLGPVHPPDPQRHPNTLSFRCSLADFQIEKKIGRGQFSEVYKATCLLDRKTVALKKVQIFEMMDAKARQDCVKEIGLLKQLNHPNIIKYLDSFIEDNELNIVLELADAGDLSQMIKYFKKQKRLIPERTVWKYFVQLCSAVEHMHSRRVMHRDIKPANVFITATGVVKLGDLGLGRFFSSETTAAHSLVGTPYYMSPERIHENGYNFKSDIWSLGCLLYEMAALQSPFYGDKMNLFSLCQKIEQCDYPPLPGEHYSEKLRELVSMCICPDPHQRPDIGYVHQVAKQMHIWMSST
Sequence of UniProt P52333 (whole entry, looked up): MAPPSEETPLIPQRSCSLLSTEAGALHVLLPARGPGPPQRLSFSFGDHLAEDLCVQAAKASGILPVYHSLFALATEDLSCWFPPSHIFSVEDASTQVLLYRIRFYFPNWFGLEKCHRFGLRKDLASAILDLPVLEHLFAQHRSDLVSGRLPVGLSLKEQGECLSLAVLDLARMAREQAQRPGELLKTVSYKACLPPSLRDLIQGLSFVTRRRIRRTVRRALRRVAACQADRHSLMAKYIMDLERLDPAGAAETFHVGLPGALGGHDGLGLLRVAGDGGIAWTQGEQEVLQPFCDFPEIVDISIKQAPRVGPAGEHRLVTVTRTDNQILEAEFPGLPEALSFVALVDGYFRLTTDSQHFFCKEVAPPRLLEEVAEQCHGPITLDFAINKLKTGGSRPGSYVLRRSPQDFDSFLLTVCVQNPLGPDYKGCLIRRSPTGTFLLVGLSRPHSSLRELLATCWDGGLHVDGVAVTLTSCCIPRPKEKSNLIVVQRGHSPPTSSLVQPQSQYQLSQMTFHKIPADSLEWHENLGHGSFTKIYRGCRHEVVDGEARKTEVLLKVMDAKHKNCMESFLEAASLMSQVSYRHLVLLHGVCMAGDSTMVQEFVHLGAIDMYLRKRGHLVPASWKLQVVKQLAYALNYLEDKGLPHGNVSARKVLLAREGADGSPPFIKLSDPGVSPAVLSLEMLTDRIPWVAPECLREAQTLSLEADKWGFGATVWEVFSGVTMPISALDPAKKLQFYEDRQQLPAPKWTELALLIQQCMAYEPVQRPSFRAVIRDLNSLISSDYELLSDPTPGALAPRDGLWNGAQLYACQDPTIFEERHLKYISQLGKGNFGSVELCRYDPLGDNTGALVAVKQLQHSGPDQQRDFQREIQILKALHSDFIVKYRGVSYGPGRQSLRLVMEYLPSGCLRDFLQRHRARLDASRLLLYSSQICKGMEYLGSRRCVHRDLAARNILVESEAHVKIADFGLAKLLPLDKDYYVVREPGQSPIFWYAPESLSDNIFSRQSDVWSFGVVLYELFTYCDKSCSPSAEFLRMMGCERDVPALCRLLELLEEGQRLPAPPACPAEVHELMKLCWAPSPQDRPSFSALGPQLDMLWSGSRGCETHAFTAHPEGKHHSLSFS
Sequence of UniProt P22607 (whole entry, looked up): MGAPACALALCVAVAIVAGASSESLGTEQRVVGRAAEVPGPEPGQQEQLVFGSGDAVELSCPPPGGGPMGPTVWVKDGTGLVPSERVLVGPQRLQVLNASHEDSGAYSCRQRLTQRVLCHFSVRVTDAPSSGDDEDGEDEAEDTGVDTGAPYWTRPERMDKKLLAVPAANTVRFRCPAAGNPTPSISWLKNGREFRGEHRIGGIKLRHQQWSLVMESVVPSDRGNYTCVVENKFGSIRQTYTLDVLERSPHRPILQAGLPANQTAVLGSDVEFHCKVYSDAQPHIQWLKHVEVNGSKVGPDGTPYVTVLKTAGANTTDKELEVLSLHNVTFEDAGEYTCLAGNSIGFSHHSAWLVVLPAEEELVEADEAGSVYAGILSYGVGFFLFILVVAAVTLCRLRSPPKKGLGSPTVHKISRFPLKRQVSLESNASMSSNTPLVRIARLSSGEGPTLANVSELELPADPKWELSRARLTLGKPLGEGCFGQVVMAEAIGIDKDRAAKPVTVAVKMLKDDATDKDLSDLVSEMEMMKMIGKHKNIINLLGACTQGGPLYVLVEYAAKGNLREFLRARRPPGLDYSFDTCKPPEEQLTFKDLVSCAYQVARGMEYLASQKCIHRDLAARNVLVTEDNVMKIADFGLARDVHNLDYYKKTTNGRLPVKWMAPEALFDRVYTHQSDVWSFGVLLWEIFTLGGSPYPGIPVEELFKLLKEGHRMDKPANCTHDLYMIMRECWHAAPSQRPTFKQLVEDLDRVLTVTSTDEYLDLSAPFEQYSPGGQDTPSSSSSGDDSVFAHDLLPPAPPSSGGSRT
Sequence of UniProt P27361 (whole entry, looked up): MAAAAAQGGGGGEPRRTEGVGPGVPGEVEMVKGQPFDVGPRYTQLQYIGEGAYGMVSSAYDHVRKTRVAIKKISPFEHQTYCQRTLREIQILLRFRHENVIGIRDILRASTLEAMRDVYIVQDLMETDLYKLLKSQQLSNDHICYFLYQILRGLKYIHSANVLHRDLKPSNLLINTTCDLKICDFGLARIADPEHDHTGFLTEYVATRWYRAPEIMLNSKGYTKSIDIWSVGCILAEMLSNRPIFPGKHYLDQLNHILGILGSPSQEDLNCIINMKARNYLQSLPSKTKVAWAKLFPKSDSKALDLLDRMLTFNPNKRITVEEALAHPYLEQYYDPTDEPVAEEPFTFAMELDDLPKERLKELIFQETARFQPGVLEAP
Sequence of UniProt P42338 (whole entry, looked up): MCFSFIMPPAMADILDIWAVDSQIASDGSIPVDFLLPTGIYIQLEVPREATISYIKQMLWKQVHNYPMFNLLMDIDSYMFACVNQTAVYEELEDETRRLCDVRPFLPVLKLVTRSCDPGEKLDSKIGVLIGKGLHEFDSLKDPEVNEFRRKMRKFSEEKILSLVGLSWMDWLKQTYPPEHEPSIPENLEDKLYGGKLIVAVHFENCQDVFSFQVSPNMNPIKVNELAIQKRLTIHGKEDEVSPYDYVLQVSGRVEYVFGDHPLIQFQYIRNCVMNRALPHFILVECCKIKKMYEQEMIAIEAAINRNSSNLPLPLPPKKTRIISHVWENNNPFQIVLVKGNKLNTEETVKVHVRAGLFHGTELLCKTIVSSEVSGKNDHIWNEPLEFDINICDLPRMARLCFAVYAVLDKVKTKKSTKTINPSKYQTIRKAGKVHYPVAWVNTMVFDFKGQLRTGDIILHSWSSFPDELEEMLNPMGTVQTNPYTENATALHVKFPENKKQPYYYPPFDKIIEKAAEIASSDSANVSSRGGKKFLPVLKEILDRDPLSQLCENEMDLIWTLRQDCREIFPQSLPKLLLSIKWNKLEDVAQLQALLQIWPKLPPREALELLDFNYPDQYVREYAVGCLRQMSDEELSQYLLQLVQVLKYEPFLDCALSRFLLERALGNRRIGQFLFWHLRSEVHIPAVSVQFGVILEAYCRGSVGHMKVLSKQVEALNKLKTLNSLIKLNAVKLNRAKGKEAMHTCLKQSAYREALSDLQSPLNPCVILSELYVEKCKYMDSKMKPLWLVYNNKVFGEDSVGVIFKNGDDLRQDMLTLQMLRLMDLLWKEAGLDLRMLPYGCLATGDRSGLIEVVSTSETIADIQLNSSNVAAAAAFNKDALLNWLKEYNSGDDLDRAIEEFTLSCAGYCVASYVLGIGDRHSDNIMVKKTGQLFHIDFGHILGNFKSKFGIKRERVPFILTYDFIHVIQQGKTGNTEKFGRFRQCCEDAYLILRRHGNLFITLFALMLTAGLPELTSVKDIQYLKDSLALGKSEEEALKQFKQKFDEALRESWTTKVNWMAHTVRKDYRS

Series 1
Host: mouse
Matrix: microsomes or S9
Tested at: 2 µM
Time: 0.5 h
`CCOc1ccsc1C1=NOC(C)(COCc2c(Cl)cccc2Cl)C1` (centres unmarked) gave a remaining compound of 0%.
For `Clc1ccccc1/C=C/c1nnc(-c2ccccc2Cl)o1`, the remaining compound was 86.7%.
For `CC1=CC(=O)/C(=C(/C)Nc2cc(-c3ccccc3)n[nH]2)C(=O)O1`, the remaining compound was 73.7%.
With `CN(C)CCCOc1ccc(CN2CCC(NC(=O)c3ccc(Br)o3)CC2)cc1` the remaining compound was 76.1%.
`c1ccc(Nc2ccc(Oc3ncnc4sccc34)cc2)cc1` gave a remaining compound of 0.831%.

Series 2
Compound: CC1=C(C#N)[C@@H](c2ccc3[nH]nc(C)c3c2)C(C#N)=C(c2ccc(Cl)cc2)N1
Technique: competition with immobilised ligand
Tested at: 1 µM
Receptor-type tyrosine-protein kinase FLT3 (FLT3, Homo sapiens, UniProt P36888, R834Q); cell-free assay — remaining binding: 100%.
Tyrosine-protein kinase Tec (TEC, Homo sapiens, UniProt P42680); binding — remaining binding: 100%.
For Cyclin-dependent kinase 9 (CDK9, Homo sapiens, UniProt P50750); cell-free assay: remaining binding read 96.9%.
Receptor-interacting serine/threonine-protein kinase 2 (RIPK2, Homo sapiens, UniProt O43353); cell-free assay — remaining binding: 92%.
Phosphatidylinositol 4,5-bisphosphate 3-kinase catalytic subunit beta isoform (PIK3CB, Homo sapiens, UniProt P42338); cell-free assay — remaining binding: 100%.

Series 3
SMILES: CC(C)(C(=O)O)[C@H](NC(=O)Cc1cccc(I)c1)c1ccc2oc(=O)[nH]c2c1
Cell line: A375
Technique: Incucyte 3D growth
Tested at: 30 µM
Direction: higher = more growth
It gave 1.81e+07 a.u. and 1.6e+07 a.u. and 1.99e+07 a.u. and 1.16e+07 a.u. and 1.76e+07 a.u. for spheroid area (30.52 h).
36 h — spheroid area: 1.68e+07 a.u. and 1.7e+07 a.u. and 1.28e+07 a.u. and 2.06e+07 a.u. and 2.21e+07 a.u.
192.52 h — spheroid area: 1.43e+08 a.u. and 1.51e+08 a.u. and 1.54e+08 a.u. and 1.42e+08 a.u. and 1.35e+08 a.u. and 1.28e+08 a.u.

Series 4
Compound: Nc1nccc(-c2c(-c3ccc(F)cc3)ncn2C2CCNCC2)n1
Effect on: enzyme activity
Mode: inhibitor
Tested at: 0.5 µM
Reference: control
For MAP kinase-activated protein kinase 2 (MAPKAPK2, Homo sapiens, UniProt P49137): remaining activity read 97.6%.
It gave 99.3% for remaining activity (Ribosomal protein S6 kinase alpha-2 (RPS6KA2, Homo sapiens, UniProt Q15349)).
For Activin receptor type-1B (ACVR1B, Homo sapiens, UniProt P36896): remaining activity read 121%.
Casein kinase I isoform gamma-3 (CSNK1G3, Homo sapiens, UniProt Q9Y6M4) — remaining activity: 83.9%.
For Mitogen-activated protein kinase 3 (MAPK3, Homo sapiens, UniProt P27361): remaining activity read 100%.
It gave 104% for remaining activity (Serine/threonine-protein kinase Nek6 (NEK6, Homo sapiens, UniProt Q9HC98)).
It gave 95.5% for remaining activity (Serine/threonine-protein kinase ULK3 (ULK3, Homo sapiens, UniProt Q6PHR2)).
For Serine/threonine-protein kinase TAO2 (TAOK2, Homo sapiens, UniProt Q9UL54): remaining activity read 98%.
Mitogen-activated protein kinase kinase kinase 14 (MAP3K14, Homo sapiens, UniProt Q99558) — remaining activity: 107%.
For Tyrosine-protein kinase JAK3 (JAK3, Homo sapiens, UniProt P52333): remaining activity read 96.9%.
The remaining activity was 91.2% (Fibroblast growth factor receptor 1 (FGFR1, Homo sapiens, UniProt P11362)).
Tyrosine-protein kinase ABL2 (ABL2, Homo sapiens, UniProt P42684) — remaining activity: 95.1%.
For Glycogen synthase kinase-3 beta (GSK3B, Homo sapiens, UniProt P49841): remaining activity read 101%.
It gave 100% for remaining activity (Fibroblast growth factor receptor 3 (FGFR3, Homo sapiens, UniProt P22607)).
Casein kinase I isoform gamma-2 (CSNK1G2, Homo sapiens, UniProt P78368) — remaining activity: 119%.

Series 5
Cell line: HaCaT
Tested at: 100 µM
Time: 18 h
With `C[C@@H]1C[C@H]2[C@@H]3CCC4=CC(=O)C=C[C@]4(C)[C@@]3(Cl)[C@@H](O)C[C@]2(C)[C@@]1(OC(=O)c1ccco1)C(=O)CCl` the viability was 30%.
For `Oc1ccc(O)cc1`, the viability was 139%.
`S=P(N1CC1)(N1CC1)N1CC1` has a viability of 110%.
`O=c1c(-c2ccc(O)cc2)coc2c([C@@H]3O[C@H](CO)[C@@H](O)[C@H](O)[C@H]3O)c(O)ccc12` has a viability of 110%.

Excerpt of the above (series 4):
Casein kinase I isoform gamma-3 (CSNK1G3, Homo sapiens, UniProt Q9Y6M4) — remaining activity: 83.9%.
It gave 99.3% for remaining activity (Ribosomal protein S6 kinase alpha-2 (RPS6KA2, Homo sapiens, UniProt Q15349)).
For Activin receptor type-1B (ACVR1B, Homo sapiens, UniProt P36896): remaining activity read 121%.
